Measured values from different studies.

| SMILES | assay | system | conditions | quantity | value |
| --- | --- | --- | --- | --- | --- |
| CNC(=O)n1ccc2cc(Oc3ccnc(NC(=O)c4ccc(C5CCN(CCO)CC5)cc4)c3)c(OCCOC)cc21 |  | healthy human | oral, 35 mg | subjects, with TEAEs, treatment-related | 14.3% |
| CC(=O)N(C)[C@H]1CCN(C(=O)c2cnc3c(c2)C[C@](C)(c2ccc(F)cc2)N3)C1 |  | healthy male human | oral, 60 mg once daily, multiple rising dose, with: midazolam | subjects with drug-related AEs | 37.5% |
| Cc1ncc2n1-c1ccc(Cl)cc1C(c1ccccc1F)=NC2 |  | human | oral, dose not given | subjects with treatment-related TEAE | 17.9% |
| Cc1ncc2n1-c1ccc(Cl)cc1C(c1ccccc1F)=NC2 | item: blood creatinine increased | humans | oral, dose not given | subjects with TEAEs | 0% |
| NCCCC[C@@H]1NC(=O)[C@@H](Cc2c[nH]c3ccccc23)NC(=O)[C@H](c2ccccc2)NC(=O)[C@@H]2C[C@@H](OC(=O)NCCN)CN2C(=O)[C@H](Cc2ccccc2)NC(=O)[C@H](Cc2ccc(OCc3ccccc3)cc2)NC1=O |  | healthy human volunteers | 600 µg twice daily | subjects with abdominal distension | 5% |
| COc1ccc2c(c1)[C@]13CCCC[C@@H]1[C@H](C2)N(C)CC3 |  | human | oral, dose not given | subjects with TEAE leading to death | 0% |
| C[C@]1(CO)Cc2ncn(-c3ccc(C#N)c(Cl)c3)c2C(=O)O1 |  | human | 5 mg single dose | subjects with any TEAE | 28.6% |
| CC[C@H]1[C@@H](O)[C@@H]2[C@H](CC[C@]3(C)[C@@H]([C@H](C)CCNC(=O)NS(=O)(=O)c4ccc(C(C)(C)C)cc4)CC[C@@H]23)[C@@]2(C)CC[C@@H](O)C[C@@H]12 |  | human | concentration not given, study, with: itraconazole | subjects with TEAEs | 20.8% |
| O=c1ccc2ncc(=O)n3c2n1C[C@H]3CN1CCC(NCc2cc3c(cn2)OCCC3)CC1 |  | healthy humans | oral, 1500 mg, with: rifampicin 600 mg | subjects with abdominal pain | 6% |
| C=C(C)[C@@H]1CCC(C)=C[C@H]1c1c(O)cc(CCCCC)cc1O |  | human | 750 mg, trial 17074, with: rifampicin 600 mg | subjects with Headache | 13% |

A few entries again:
| SMILES | assay | system | conditions | quantity | value |
| --- | --- | --- | --- | --- | --- |
| Cc1ncc2n1-c1ccc(Cl)cc1C(c1ccccc1F)=NC2 | item: blood creatinine increased | humans | oral, dose not given | subjects with TEAEs | 0% |
| NCCCC[C@@H]1NC(=O)[C@@H](Cc2c[nH]c3ccccc23)NC(=O)[C@H](c2ccccc2)NC(=O)[C@@H]2C[C@@H](OC(=O)NCCN)CN2C(=O)[C@H](Cc2ccccc2)NC(=O)[C@H](Cc2ccc(OCc3ccccc3)cc2)NC1=O |  | healthy human volunteers | 600 µg twice daily | subjects with abdominal distension | 5% |
